Experimental data from different studies.
Numbered parts are unrelated; each lists some results of a single study.
Sequence of UniProt P60842 (whole entry, looked up): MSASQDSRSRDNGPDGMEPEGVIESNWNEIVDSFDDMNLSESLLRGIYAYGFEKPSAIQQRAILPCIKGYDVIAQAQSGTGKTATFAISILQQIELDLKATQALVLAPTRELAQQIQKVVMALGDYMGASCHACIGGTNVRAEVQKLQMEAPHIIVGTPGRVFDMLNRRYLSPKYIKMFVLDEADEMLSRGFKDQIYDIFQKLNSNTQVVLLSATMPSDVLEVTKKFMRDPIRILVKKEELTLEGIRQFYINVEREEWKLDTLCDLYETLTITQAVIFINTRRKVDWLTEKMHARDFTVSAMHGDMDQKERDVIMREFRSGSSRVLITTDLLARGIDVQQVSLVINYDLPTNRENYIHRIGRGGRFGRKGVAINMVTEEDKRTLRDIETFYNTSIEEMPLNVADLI
Sequence of UniProt P09769 (whole entry, looked up): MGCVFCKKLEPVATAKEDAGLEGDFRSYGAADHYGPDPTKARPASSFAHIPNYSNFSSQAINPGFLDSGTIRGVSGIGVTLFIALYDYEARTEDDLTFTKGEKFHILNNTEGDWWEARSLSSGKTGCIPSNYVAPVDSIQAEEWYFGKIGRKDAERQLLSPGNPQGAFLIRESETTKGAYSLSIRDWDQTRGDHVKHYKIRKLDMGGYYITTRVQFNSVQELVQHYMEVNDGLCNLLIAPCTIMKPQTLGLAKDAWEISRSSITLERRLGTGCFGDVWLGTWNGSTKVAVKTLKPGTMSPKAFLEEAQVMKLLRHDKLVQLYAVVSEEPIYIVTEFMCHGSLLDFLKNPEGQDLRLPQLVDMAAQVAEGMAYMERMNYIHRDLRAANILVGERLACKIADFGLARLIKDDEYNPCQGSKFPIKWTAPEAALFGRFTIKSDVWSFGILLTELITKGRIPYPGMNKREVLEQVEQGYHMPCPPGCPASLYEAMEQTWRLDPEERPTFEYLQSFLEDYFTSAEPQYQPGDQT
Sequence of UniProt Q92630 (whole entry, looked up): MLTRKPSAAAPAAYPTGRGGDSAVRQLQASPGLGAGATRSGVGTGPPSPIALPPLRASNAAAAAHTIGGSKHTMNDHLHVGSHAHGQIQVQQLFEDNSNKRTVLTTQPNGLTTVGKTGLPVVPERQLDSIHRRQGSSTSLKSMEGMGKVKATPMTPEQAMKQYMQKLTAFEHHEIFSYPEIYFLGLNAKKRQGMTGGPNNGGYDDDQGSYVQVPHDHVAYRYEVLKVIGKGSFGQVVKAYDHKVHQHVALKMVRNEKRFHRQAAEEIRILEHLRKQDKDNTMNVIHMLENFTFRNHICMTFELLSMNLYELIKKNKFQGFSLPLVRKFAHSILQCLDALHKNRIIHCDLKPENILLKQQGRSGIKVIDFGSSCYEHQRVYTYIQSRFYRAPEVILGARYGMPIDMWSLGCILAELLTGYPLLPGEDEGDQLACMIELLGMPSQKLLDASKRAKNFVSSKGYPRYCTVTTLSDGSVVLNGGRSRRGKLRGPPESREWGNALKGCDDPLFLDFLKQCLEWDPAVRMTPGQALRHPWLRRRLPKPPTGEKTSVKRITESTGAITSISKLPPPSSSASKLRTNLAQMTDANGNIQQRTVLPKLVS
Sequence of UniProt P9WI81 (whole entry, looked up): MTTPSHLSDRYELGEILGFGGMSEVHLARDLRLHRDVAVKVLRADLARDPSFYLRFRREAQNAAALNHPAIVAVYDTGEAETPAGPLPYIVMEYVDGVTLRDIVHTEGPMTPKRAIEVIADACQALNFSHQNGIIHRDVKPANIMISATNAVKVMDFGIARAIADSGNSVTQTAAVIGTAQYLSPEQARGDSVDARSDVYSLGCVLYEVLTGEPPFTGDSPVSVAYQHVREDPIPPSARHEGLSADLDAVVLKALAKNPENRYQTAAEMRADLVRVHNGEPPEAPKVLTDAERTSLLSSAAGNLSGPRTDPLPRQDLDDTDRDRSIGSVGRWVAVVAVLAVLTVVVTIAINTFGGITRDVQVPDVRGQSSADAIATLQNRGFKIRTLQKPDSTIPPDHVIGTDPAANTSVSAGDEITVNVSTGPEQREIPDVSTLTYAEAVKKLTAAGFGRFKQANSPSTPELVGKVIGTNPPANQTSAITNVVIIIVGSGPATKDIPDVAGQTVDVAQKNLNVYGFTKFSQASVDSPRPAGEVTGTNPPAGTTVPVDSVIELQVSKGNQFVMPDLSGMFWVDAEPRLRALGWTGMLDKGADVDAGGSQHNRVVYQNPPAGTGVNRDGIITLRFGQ
Sequence of UniProt Q96KB5 (whole entry, looked up): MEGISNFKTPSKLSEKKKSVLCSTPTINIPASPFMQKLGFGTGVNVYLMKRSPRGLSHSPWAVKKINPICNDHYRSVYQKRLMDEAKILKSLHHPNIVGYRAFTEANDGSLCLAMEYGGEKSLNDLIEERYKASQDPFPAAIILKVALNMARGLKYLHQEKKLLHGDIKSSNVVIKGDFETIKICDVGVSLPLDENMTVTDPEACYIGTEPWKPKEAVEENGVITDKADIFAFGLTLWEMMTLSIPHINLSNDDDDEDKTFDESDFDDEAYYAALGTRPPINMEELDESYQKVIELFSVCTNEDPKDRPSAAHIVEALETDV

Sample 1
Host: mouse
Matrix: microsomes or S9
Tested at: 2 µM
Time: 0.5 h
SMILES	remaining compound [%]
Cc1nc(Cl)c(Cl)n1Cc1ccc(Cl)nc1	28.7
C/C(NN1CCCCCC1)=C1\C(=O)N(C2CCCCC2)C(=O)N=C1O	16.8
Cc1cc(C#N)cc(C(=O)NCc2ccc3c(c2)OCO3)c1NC(=O)c1cc(Br)nn1-c1ncccc1Cl	16.6

Sample 2
SMILES: CC(C)(C)c1cc(C=C(C#N)C#N)cc(Br)c1O
Observed: enzyme activity
Mode: inhibitor
Tested at: 0.5 µM
target	reference	remaining activity [%]
FGR (Homo sapiens, UniProt P09769)	control	75.4
DYRK2 (Homo sapiens, UniProt Q92630)	–	104
NLK (Homo sapiens, UniProt Q9UBE8)	control	93.6
CDC42BPA (Homo sapiens, UniProt Q5VT25)	control	101
PBK (Homo sapiens, UniProt Q96KB5)	–	102

Single results of other studies
POLQ ATPase domain: DNA polymerase theta, ATPase domain (POLQ, Homo sapiens, UniProt O75417)
Sequence of UniProt O75417 (whole entry, unmodified, looked up): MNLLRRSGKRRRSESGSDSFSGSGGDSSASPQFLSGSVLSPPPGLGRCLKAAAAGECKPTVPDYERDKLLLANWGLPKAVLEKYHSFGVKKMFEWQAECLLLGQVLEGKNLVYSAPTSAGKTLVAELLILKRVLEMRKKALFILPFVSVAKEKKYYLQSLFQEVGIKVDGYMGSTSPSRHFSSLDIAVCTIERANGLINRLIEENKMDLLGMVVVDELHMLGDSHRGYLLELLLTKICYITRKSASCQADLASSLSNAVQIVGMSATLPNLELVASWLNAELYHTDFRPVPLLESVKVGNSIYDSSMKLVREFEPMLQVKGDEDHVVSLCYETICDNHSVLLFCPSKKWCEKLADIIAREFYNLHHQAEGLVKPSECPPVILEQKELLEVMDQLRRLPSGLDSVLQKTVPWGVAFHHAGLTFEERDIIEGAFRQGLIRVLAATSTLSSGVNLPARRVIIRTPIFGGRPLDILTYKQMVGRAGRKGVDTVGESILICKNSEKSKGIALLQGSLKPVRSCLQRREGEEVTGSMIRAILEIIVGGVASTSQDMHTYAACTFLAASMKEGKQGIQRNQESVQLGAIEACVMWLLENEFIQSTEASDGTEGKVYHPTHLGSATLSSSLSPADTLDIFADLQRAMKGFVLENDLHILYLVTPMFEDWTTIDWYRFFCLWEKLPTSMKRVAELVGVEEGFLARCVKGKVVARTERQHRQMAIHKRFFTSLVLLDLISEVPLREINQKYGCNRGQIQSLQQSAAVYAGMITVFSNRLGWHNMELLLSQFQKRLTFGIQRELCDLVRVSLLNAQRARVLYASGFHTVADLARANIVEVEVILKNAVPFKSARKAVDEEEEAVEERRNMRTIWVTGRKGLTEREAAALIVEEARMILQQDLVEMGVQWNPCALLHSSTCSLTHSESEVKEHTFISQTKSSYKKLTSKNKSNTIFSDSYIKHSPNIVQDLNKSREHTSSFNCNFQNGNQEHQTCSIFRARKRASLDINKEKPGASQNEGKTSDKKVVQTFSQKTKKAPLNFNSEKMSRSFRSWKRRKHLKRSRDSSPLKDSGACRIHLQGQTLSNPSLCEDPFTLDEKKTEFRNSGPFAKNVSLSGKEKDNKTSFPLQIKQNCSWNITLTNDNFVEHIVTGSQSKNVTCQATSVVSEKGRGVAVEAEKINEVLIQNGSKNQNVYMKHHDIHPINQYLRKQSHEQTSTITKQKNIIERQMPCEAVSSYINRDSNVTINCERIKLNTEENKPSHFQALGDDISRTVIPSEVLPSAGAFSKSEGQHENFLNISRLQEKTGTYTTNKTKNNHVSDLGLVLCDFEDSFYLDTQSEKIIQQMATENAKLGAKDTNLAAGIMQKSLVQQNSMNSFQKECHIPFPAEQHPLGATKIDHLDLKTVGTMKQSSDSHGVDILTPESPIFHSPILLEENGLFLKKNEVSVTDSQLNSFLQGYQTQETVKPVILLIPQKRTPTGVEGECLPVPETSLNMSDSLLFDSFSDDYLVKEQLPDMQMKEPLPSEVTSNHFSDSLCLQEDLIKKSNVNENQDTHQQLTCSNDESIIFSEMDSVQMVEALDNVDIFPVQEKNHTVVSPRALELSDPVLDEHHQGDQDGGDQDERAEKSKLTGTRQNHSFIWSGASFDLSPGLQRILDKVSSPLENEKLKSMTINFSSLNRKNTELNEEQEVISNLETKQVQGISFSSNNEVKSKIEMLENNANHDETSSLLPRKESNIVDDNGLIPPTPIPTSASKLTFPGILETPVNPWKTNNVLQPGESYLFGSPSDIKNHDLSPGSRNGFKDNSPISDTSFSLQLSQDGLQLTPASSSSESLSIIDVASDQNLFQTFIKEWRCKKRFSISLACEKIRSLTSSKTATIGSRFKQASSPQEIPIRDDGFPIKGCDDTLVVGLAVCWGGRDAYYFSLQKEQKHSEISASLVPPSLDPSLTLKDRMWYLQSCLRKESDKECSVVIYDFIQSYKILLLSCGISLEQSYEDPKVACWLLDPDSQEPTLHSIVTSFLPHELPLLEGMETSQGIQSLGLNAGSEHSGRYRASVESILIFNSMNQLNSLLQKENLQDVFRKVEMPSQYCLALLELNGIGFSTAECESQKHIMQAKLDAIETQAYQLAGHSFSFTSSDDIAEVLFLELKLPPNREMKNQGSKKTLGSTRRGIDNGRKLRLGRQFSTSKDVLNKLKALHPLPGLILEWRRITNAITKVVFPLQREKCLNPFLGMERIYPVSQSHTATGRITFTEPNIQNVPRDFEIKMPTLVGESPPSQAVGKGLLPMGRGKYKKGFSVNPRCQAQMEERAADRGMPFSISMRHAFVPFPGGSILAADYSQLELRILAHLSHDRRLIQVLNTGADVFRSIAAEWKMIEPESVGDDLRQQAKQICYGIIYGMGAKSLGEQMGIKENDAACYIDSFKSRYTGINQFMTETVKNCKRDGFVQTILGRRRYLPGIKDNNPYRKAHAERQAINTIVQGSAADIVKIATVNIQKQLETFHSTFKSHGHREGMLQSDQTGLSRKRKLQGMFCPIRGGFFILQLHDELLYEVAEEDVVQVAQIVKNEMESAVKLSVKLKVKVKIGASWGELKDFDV
SMILES	target	test	conditions	scale	quantity	result
Oc1noc2c1CCNC2	POLQ ATPase domain	enzyme activity, inhibitor	77 µM	reference: untreated	remaining activity	98.4%
COC(=O)[C@H]1[C@H](c2ccccc2)[C@]2(c3ccc(OC)cc3)Oc3cc(OC)cc(OC)c3[C@@]1(O)C2O (stereo partly drawn)	EIF4A1 (Homo sapiens, UniProt P60842)	RNA clamping, fluorescence polarization	concentration not given, mean of two replicates, with: FAM-labelled poly r(AG)8 RNA	–	fluorescence polarization change	1.7 mP
COC[C@H]1OC(=O)c2coc3c2[C@@]1(C)C1=C(C3=O)[C@@H]2CCC(=O)[C@@]2(C)C[C@H]1OC(C)=O	POLQ ATPase domain	enzyme activity, inhibitor	77 µM	reference: untreated	remaining activity	88.4%
O=C(NCc1ncc(C(F)(F)F)cc1Cl)c1ccc2c(c1)C1(CCS(=O)(=O)CC1)[C@H](C1CC1)N2S(=O)(=O)c1ccc(F)cc1	pknB (Mycobacterium tuberculosis, UniProt P9WI81)	cell-free assay, competition with immobilised ligand	1 µM	–	remaining binding	96%

Repeated from above (sample 1):
SMILES	remaining compound [%]
C/C(NN1CCCCCC1)=C1\C(=O)N(C2CCCCC2)C(=O)N=C1O	16.8
Cc1nc(Cl)c(Cl)n1Cc1ccc(Cl)nc1	28.7
